# Assay results pooled from the literature.
# Each line is one published result; not all experiments were run side by side. Several values in a cell are separate wells, animals, samples, runs or records. Numbers after ± are the reported error.
# MAOA: Amine oxidase [flavin-containing] A (MAOA, Homo sapiens, UniProt P21397)
# UniProt P21397, sequence (whole entry, looked up): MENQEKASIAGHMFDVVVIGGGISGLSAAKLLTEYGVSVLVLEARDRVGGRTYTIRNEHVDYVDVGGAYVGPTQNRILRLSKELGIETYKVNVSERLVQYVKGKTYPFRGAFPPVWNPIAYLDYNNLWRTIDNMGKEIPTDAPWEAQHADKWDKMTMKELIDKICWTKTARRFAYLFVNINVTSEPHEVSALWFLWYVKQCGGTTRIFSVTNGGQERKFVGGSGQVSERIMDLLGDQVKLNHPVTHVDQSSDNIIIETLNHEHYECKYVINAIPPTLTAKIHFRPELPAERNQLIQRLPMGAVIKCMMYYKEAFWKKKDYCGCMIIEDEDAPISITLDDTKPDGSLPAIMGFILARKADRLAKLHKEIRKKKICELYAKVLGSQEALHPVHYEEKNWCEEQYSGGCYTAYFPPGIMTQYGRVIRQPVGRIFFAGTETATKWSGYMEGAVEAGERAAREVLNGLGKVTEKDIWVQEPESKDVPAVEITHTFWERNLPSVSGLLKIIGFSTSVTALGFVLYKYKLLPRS
# CDK4: Cyclin-dependent kinase 4 (CDK4, Homo sapiens, UniProt P11802)
# UniProt P11802, sequence (whole entry, looked up): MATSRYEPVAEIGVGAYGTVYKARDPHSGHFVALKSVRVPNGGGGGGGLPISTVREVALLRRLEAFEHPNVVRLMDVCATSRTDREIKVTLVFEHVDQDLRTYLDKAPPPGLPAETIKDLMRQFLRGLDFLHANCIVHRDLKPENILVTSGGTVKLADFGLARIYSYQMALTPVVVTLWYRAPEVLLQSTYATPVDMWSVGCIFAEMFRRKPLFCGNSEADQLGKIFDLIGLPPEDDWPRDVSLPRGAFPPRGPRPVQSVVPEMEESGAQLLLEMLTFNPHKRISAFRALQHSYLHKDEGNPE
# SIRT5: NAD-dependent protein deacylase sirtuin-5, mitochondrial (SIRT5, Homo sapiens, UniProt Q9NXA8)
# UniProt Q9NXA8, sequence (whole entry, looked up): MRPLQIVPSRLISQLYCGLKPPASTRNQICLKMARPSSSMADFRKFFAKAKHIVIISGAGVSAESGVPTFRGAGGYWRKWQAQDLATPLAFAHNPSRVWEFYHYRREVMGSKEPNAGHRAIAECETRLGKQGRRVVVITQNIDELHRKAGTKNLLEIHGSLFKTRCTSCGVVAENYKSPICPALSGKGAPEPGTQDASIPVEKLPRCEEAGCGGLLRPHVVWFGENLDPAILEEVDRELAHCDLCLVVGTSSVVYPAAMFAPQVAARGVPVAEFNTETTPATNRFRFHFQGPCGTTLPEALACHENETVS
# DDR2: Discoidin domain-containing receptor 2 (DDR2, Homo sapiens, UniProt Q16832)
# UniProt Q16832, sequence (whole entry, looked up): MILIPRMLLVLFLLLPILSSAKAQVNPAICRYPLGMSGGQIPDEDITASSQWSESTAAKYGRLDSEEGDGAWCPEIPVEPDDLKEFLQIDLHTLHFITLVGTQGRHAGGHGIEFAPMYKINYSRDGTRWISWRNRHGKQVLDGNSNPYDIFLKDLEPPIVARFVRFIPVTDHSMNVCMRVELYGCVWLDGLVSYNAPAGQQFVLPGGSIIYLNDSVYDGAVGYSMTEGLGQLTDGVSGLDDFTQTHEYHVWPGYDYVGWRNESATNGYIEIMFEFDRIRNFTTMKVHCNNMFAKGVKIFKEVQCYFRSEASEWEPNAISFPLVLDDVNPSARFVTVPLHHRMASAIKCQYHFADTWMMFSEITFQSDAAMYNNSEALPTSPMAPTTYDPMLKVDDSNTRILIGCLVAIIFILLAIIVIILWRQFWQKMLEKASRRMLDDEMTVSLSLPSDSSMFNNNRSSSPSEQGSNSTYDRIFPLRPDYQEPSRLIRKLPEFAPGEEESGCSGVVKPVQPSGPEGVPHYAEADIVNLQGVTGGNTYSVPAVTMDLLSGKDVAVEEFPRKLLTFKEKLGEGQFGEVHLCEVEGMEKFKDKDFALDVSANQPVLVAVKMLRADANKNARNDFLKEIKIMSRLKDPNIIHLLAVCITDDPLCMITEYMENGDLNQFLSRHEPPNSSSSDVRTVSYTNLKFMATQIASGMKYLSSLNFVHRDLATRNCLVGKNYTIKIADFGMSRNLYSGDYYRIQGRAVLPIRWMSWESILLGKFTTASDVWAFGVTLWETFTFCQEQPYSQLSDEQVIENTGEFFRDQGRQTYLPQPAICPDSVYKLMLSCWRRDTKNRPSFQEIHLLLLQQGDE
# Gria2: Glutamate receptor 2 (Gria2, Rattus norvegicus, UniProt P19491)
# UniProt P19491, sequence (whole entry, looked up): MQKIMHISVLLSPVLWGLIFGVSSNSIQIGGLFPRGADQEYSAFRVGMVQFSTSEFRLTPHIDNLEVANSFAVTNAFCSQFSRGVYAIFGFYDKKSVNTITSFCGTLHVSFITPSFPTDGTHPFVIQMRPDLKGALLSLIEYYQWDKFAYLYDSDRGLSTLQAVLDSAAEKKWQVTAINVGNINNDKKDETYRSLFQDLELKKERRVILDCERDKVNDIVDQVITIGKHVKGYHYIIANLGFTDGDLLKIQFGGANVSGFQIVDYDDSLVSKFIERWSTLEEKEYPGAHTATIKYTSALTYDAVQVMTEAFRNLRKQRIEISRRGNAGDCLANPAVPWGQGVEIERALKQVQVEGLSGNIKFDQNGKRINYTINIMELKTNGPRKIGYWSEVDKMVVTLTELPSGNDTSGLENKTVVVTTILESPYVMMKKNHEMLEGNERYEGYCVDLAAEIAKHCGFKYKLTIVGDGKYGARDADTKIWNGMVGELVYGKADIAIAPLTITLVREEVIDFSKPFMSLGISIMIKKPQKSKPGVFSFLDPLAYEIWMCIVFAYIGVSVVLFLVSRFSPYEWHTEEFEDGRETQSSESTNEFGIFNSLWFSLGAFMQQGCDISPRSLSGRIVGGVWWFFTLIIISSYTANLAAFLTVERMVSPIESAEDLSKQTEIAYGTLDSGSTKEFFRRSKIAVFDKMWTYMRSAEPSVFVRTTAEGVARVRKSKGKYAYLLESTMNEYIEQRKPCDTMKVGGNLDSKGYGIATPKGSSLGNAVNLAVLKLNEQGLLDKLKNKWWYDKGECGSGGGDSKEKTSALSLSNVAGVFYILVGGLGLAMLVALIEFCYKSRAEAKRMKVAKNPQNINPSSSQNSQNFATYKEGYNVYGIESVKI
# VKORC1: Vitamin K epoxide reductase complex subunit 1 (VKORC1, Homo sapiens, UniProt Q9BQB6)
# UniProt Q9BQB6, sequence (whole entry, looked up): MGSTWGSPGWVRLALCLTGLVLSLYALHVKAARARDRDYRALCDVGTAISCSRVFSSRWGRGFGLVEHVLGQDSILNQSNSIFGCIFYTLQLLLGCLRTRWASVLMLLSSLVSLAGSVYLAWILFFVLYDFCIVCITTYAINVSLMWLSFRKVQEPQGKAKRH
# UniProt Q9Y6W8, sequence (whole entry, looked up): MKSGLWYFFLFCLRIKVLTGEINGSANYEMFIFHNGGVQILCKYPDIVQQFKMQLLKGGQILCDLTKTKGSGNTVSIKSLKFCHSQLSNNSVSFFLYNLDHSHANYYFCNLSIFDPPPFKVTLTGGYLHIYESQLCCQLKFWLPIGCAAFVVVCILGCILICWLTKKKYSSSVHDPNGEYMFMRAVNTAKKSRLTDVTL
# UniProt Q01727, sequence (whole entry, looked up): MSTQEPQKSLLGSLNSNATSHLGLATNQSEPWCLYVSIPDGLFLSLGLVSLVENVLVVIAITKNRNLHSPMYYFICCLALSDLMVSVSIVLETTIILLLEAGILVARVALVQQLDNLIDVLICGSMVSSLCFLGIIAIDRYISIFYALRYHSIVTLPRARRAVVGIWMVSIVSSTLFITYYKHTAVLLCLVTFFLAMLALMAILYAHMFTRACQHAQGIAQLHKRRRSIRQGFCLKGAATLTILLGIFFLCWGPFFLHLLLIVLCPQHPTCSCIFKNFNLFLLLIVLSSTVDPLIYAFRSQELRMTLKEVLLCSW
# UniProt Q93009, sequence (whole entry, looked up): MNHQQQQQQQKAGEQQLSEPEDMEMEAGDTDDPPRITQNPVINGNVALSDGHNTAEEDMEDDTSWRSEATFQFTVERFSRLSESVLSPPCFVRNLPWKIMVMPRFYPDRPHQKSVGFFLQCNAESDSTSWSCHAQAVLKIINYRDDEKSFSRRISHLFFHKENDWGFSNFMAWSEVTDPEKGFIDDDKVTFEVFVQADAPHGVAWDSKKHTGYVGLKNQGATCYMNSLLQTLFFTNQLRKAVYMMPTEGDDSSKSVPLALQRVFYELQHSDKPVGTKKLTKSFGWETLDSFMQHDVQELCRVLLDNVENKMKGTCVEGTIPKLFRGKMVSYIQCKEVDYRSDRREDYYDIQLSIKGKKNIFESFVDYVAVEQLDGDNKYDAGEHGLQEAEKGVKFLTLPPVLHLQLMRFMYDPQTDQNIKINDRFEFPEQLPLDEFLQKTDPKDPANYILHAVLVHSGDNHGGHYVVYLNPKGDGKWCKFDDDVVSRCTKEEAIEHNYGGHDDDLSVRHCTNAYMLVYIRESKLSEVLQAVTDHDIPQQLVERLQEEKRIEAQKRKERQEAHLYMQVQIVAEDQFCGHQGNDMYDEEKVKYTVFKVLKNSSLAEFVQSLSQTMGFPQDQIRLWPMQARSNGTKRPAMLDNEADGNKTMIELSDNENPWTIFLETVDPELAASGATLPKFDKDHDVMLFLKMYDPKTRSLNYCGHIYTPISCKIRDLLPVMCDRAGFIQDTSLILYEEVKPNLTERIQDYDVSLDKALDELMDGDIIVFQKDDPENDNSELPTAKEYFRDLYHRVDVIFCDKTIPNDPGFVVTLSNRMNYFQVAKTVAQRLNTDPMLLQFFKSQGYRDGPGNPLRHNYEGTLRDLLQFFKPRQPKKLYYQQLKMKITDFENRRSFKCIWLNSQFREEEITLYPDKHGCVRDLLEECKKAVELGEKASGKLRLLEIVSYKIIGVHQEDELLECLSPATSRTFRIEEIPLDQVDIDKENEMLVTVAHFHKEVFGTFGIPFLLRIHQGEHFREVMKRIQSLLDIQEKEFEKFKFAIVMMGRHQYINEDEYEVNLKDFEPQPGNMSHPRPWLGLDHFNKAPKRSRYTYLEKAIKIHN
# UniProt P09936, sequence (whole entry, looked up): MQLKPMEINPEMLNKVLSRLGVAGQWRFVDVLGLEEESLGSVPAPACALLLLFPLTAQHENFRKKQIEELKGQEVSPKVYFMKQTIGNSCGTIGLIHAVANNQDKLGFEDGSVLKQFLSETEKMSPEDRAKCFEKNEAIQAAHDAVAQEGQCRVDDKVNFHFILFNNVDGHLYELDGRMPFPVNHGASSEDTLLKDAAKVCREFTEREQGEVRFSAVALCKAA
SMILES,target,test,system,setting,IC50
CC(C)c1ccc(/C=C/C(=O)c2nc3ccccc3[nH]2)cc1,MAOA,"enzyme activity, inhibitor",,,12400 nM
COC(=O)CCCC(=O)Nc1ccc(Nc2ncc(F)c(-c3cc(F)c4nc(C)n(C(C)C)c4c3)n2)cc1,CDK4,,,,2.1 nM
CCN(CC)CC(=O)Nc1cccc(-n2cc(-c3ccc4ccc(-c5cn(-c6cccc(NC(=O)CN(CC)CC)c6)nn5)cc4c3)nn2)c1,"Serine/threonine-protein kinase mTOR (MTOR, Homo sapiens, UniProt P42345)","enzyme activity, inhibitor",,,> 10000 nM
O=C(O)CCNC(=S)NCCCC[C@H](NS(=O)(=O)c1cccc(F)c1)C(=O)N[C@@H](Cc1c[nH]c2ccccc12)C(=O)NC1CCC1,SIRT5,"inhibitor, fluorogenic",,"pre-incubation 4 h, with: NAD+ 500 µM",74 nM and 72 nM
Cc1cc(O)c2c(c1O)C(=O)c1cc(O)cc(O)c1C2=O,MAOA,"enzyme activity, inhibitor",,,~9000 nM and 9130 nM
CN1CCc2cc(Br)c(O)cc2C(c2ccc(NC(=O)CCOCCOCCOCCn3cc(COCCOCCOCCOCCC(=O)NCCc4c[nH]cn4)nn3)cc2)C1 (centres unmarked),"D(1A) dopamine receptor (DRD1, Homo sapiens, UniProt P21728)",cell-based,,,123 nM
COC(=O)CCCC(=O)NCc1ccc(Nc2ncc(F)c(-c3cc(F)c4nc(C)n(C(C)C)c4c3)n2)cc1,CDK4,,,,1.2 nM
NC(=O)c1cccc(NC(=O)c2cc(-c3ccccc3)n(-c3ccccc3)n2)c1,"Genome polyprotein, NS2B-NS3 protease (dengue virus type 2, UniProt P29990)",enzyme activity,,with: AMC substrate 50 µM,> 50000 nM
Clc1ccc(CC2CON=C(c3cc(Cl)nnc3Oc3cccc(C4CC4)c3)N2)c(Cl)c1 (centres unmarked),"serine palmitoyltransferase (Botrytis cinerea, UniProt A0A384JAG3+A0A384JQT2)",,,,5 nM
CCCC[C@H](NC(=O)CNC(=O)CNC(C)=O)C(=O)N[C@@H](CS)C(=O)N[C@@H](CS)C(=O)N[C@@H](CCC(=O)O)C(=O)N[C@@H](Cc1c[nH]cn1)C(=O)N[C@H](Cc1ccccc1)C(=O)N[C@@H](CCCNC(=N)N)C(=O)N[C@@H](Cc1c[nH]c2ccccc12)C(=O)N[C@@H](CS)C(=O)N[C@@H](CCCNC(=N)N)C(=O)N1CCC[C@H]1C(N)=O,"Melanocyte-stimulating hormone receptor (Mc1r, Mus musculus, UniProt Q01727)","ligand displacement, radioligand",,,2 nM
O=C(CN1CN(c2ccccc2)C2(CCN(C(=O)c3ccc4[nH]ncc4c3)CC2)C1=O)N1CCOCC1,DDR2,ligand displacement,,,4910 nM
Cc1cc(C)c(S(=O)(=O)N(CC(=O)O)c2ccc(Nc3ccnc(N4CCCC4)n3)cc2)c(C)c1,CDK4,"enzyme activity, inhibitor",,,> 100000 nM
COC(=O)Cc1cc2c(cc1C(=O)c1cccc(I)c1)OCO2,Gria2,"glutamate-evoked current, inhibitor, whole-cell patch clamp","HEK293T, homomeric receptor",,5620 nM
Cc1nn(-c2cccc(N)c2)c(=O)c2cnc(Nc3ccc(N4CCNCC4)cc3)nc12,"MAP kinase-activated protein kinase 5 (MAPKAPK5, Homo sapiens, UniProt Q8IW41)","enzyme activity, inhibitor",,,> 10000 nM
COC(=O)CCCCCCC(=O)Nc1ccc(Nc2ncc(F)c(-c3cc(F)c4nc(C)n(C(C)C)c4c3)n2)cc1,CDK4,,,,2.2 nM
CCn1nc(Cl)c2c1-c1cnc(N)c(c1)O[C@H](C)c1cc(F)ccc1-c1nn(C)cc1C2,"Ephrin type-A receptor 1 (EPHA1, Homo sapiens, UniProt P21709)","enzyme activity, inhibitor, radiometric",,,640 nM
O=C(NC1CCC1)[C@H](Cc1c[nH]c2ccccc12)NC(=O)[C@H](CCCCNC(=S)NCCc1n[nH]c(=S)o1)NS(=O)(=O)c1cccc(F)c1,SIRT5,"enzyme activity, inhibitor",,,5400 ± 500 nM
CNC(=O)Cc1cccc(CNC(=O)CN2CN(c3ccccc3)C3(CCN(C(=O)c4ccc5[nH]ncc5c4)CC3)C2=O)c1,DDR2,ligand displacement,,,5300 nM
Cc1ccc(-c2nn(-c3ccc(S(C)(=O)=O)cc3)cc2/C=N/N=C2/NC(=O)CS2)cc1,"Epidermal growth factor receptor (EGFR, Homo sapiens, UniProt P00533, L858R/T790M)","enzyme activity, inhibitor",,,51 nM
CC(C)(COP(=O)(O)OP(=O)(O)OC[C@H]1O[C@@H](n2cnc3c(N)ncnc32)[C@H](O)[C@@H]1OP(=O)(O)O)[C@@H](O)C(=O)NCCC(=O)NCCSCC(=O)N[C@@H](CO)C(=O)NCC(=O)N[C@@H](CCCNC(=N)N)C(N)=O,"N-alpha-acetyltransferase 40 (NAA40, Homo sapiens, UniProt Q86UY6)","enzyme activity, inhibitor, fluorescence",,,167 nM
O=C(CN1CN(c2ccccc2)C2(CCN(C(=O)c3ccc4[nH]ncc4c3)CC2)C1=O)Nc1ccccc1,DDR2,ligand displacement,,,344 nM
COc1ccc(Nc2cc(NC3CC3)n3ncc(C#N)c3n2)cc1,"Tyrosine-protein kinase Blk (BLK, Homo sapiens, UniProt P51451)",inhibitor,,,> 10000 nM
C=CC[C@@H]1NC(=O)CCSCc2ccc(cc2)CSC/C=C/CNC(=O)[C@H](CCCCCC(=O)N(O)CCCCCC)NC1=O,"Histone deacetylase 11 (HDAC11, Homo sapiens, UniProt Q96DB2)","enzyme activity, inhibitor, fluorescence",,,410 nM
Clc1cc(Cl)cc(CNCCCNc2nc3ncccc3[nH]2)c1,"Methionine--tRNA ligase, mitochondrial (MARS2, Homo sapiens, UniProt Q96GW9)","enzyme activity, inhibitor",,,< 13 nM
O=C(CCl)Nc1nc2ccc([N+](=O)[O-])cc2s1,"Ubiquitin carboxyl-terminal hydrolase isozyme L1 (UCHL1, Homo sapiens, UniProt P09936)","enzyme activity, inhibitor, Ub-rhodamine",,,14000 nM
CC(C)c1ccc(/C=C/C(=O)c2c[nH]c3ccccc23)cc1,MAOA,"enzyme activity, inhibitor",,,5820 nM
O=C(Cn1ncc2cccn2c1=O)NC(c1ccccc1)c1ccccc1,VKORC1,"carboxylation, inhibitor, ELISA",HEK293 stably expressing,"24 h, with: vitamin K epoxide 5 µM",38900 nM
COC(=O)Cc1cc2c(cc1C(=O)c1ccccc1)OCO2,Gria2,"glutamate-evoked current, inhibitor, whole-cell patch clamp","HEK293T, homomeric receptor",,5890 nM
COC(=O)CCCCCCC(=O)NCc1ccc(Nc2ncc(F)c(-c3cc(F)c4nc(C)n(C(C)C)c4c3)n2)cc1,CDK4,,,,2.1 nM
CN[C@H]1CCN(C(=O)c2c(C)cc(C(F)(F)F)nc2-c2ccnc3cc(CN4C(=O)C5C(C4=O)C5(C)C)sc23)C1 (some centres unmarked),"Ubiquitin carboxyl-terminal hydrolase 7 (USP7, Homo sapiens, UniProt Q93009)","enzyme activity, inhibitor, fluorescence",,,33 nM
CC(C)C[C@@H]1NC(=O)[C@H](C(C)C)NC(=O)[C@H](Cc2c[nH]c3ccccc23)NC(=O)[C@@H]2CSSC[C@H](NC(=O)[C@H](Cc3ccc(O)cc3)NC(=O)[C@H](C(C)C)NC(=O)[C@H](CCCNC(=N)N)NC(=O)CNC(=O)[C@H]3CCCN3C1=O)C(=O)N[C@@H](CCC(N)=O)C(=O)N1CCC[C@H]1C(=O)NCC(=O)N[C@@H](Cc1c[nH]c3ccccc13)C(=O)N2,"Inducible T-cell costimulator, with ICOS ligand (Homo sapiens, UniProt Q9Y6W8)","ICOS/ICOS-L binding, inhibitor, TR-FRET",,,22900 ± 5470 nM
Cc1nc(O)c2nnn(C[C@@H]3CCCN(C(=O)c4ccc(F)cc4F)C3)c2n1,VKORC1,"carboxylation, inhibitor, ELISA",HEK293 stably expressing,"24 h, with: vitamin K epoxide 5 µM",> 100000 nM
